Results of several laboratories.
A part holds a random share of what one study measured. Substitutions count along the parent as printed.

Series 1 — technique: aptamer microarray, sandwich; molecule type: DNA with 2'F-ANA; medium: in vitro; concentration: 200 nM; added: Cy3 exosite-II aptamer, 400 nM; reading: higher = stronger binding; quantity: mean fluorescence intensity; strand: GGTTGGTGTGGTTGG
Target: Prothrombin, mature alpha-thrombin (F2, Homo sapiens, UniProt P00734)
Notes: whole 15-mer aptamer, many near background
2'F-ANA at 2 8 15: 519 a.u.
2'F-ANA at 1 4 5 10 11 15: 46.8 a.u.
2'F-ANA at 1 5 6 8 9 10 11 12 13 14 15: 57.5 a.u.
2'F-ANA at 6 7 9 11 12: 591 a.u.
2'F-ANA at 2 7 8 10 12 13 14 15: 98.1 a.u.
2'F-ANA at 1 4 8 11 14 15: 177 a.u.
2'F-ANA at 2 3 5 6 9 10 11 12 13: 53 a.u.
2'F-ANA at 4 9 10 11 12 13 14 15: 62.1 a.u.
2'F-ANA at 1 5 6 7 8 12 15: 130 a.u.
2'F-ANA at 2 5 6 12 15: 141 a.u.
2'F-ANA at 1 2 4 11 12 14 15: 54.9 a.u.
2'F-ANA at 1 2 3 4 5 7 8 9 11 12 13 14 15: 51.4 a.u.
2'F-ANA at 1 2 5 8 10 13 14 15: 45.9 a.u.
2'F-ANA at 1 3 4 6 8 10 11 12 14: 59.9 a.u.
2'F-ANA at 1 2 3 5 7 8 9 10 15: 54.8 a.u.
2'F-ANA at 4 8 10 11: 88.5 a.u.
2'F-ANA at 1 4 6 8 9 11 12 13: 142 a.u.
2'F-ANA at 2 4 5 6 8 14: 70.9 a.u.
2'F-ANA at 1 2 3 8 9 11 13 14: 67.4 a.u.
2'F-ANA at 4 5 6 7 8 9 10 11 13 15: 62.9 a.u.

Series 2 — technique: protein binding microarray; molecule type: double-stranded DNA, one strand shown; medium: in vitro; concentration: not given; baseline: not given; reading: higher = stronger binding; quantity: E-score
Target: Histone acetyltransferase KAT6A, winged helix 2, GST fusion (KAT6A, Homo sapiens, UniProt Q92794, residues 85-181)
Notes: 8-mer, flanks averaged, mean of 2 arrays, mostly near background
Residues (chain): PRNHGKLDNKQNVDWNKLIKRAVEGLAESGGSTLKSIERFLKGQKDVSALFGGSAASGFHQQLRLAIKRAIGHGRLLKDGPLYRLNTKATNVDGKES
CAACCCTA: -0.075
CTCCAATA: 0.0551
CCACGTAC: -0.279
GTGGAAGA: 0.143
AACTGCTT: -0.0897
CCATCCAC: -0.185
CCTCTATA: -0.0242
AGACTAAA: -0.114
TCAGGGGA: -0.00894
AACGAACA: 0.0333
ACTAGCGA: 0.0626
GAGACGGA: 0.0362
TAATATCA: 0.144
TAAAGACA: -0.141
CATCGGGC: 0.0853
GACGCAAA: 0.136
CGGTCGCC: 0.103
ACTAGTCT: -0.17
CTATACCC: -0.15
AGCGTGAC: 0.00378
CTGGCCTC: 0.028
CGACGTCG: -0.128
CACCCATG: 0.0389
ATTAAGGA: -0.0505
ATCAGACG: -0.12

Series 3 — target: CCNB2, cyclin fold, Cln2 fusion (human); technique: yeast growth competition, sequencing; medium: yeast; notes: strong parent motif; baseline: not given; reading: higher = stronger binding; quantity: normalised enrichment score
Starting sequence: E2F1 docking peptide (human); PPVKRRLDFETDH; partner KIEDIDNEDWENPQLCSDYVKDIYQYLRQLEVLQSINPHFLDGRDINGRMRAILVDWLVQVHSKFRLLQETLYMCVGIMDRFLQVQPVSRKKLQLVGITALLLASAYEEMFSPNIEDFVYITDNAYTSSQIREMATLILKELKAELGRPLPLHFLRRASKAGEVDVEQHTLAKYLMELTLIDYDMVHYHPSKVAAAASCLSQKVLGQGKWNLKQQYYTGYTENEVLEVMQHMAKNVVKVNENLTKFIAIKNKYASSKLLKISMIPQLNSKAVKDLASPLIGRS
PPVKRRNDFETDH [L7N]: 0.301
PPVKRRLLFETDH [D8L]: 2.73
PPVQRRLDFETDH [K4Q]: 2.69
PPVKRRLQFETDH [D8Q]: 2.11
PPVWRRLDFETDH [K4W]: 0.472
PPVKRRLDGETDH [F9G]: 0.156
PPVKRRLAFETDH [D8A]: 1.89
PPVKRHLDFETDH [R6H]: 2.21
PPVKRRLDFATDH [E10A]: 2.64
PPVKRRLRFETDH [D8R]: 1.75
PPVKRRDDFETDH [L7D]: -0.171
PPVKRRLDFETEH [D12E]: 4.29
PPVKRRMDFETDH [L7M]: 0.675
PPVKRRLDFENDH [T11N]: 3.98
PPVKRRLDHETDH [F9H]: 0.0345
PPVKRALDFETDH [R6A]: 2.25
PPVKRILDFETDH [R6I]: 1.91
PPKKRRLDFETDH [V3K]: 0.878
PPVKRRLDFETFH [D12F]: 3.25
PPVKIRLDFETDH [R5I]: 1.86
PPVKRRLDFETWH [D12W]: 3.05
PPVFRRLDFETDH [K4F]: 0.851
PPVKRRHDFETDH [L7H]: 0.0574
PPVKRRLDFVTDH [E10V]: 2.17
PPVKRRYDFETDH [L7Y]: 0.296

Series 4 — technique: RNA Bind-n-Seq; molecule type: RNA; medium: in vitro; concentration: 365 nM; baseline: no-protein control; reading: higher = stronger binding; quantity: RBNS enrichment (R)
Target: RNA binding protein fox-1 homolog 2, RRM domain, GST-SBP tag (RBFOX2, Homo sapiens, UniProt O43251-10, residues 100-194)
Notes: natural RNA segment, single round, ends assumed
Target sequence (chain): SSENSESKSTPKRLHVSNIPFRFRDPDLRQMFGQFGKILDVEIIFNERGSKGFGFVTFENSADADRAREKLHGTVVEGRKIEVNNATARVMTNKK
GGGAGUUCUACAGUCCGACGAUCUCAUGAUGGUAUGUGAAUAUGUGUGUAUGUUGCAAACAGGAAAUGCACUUGUAAACAUACGACAUGAUGUUAAAAUUGAAAGCAGGACUGAACUAACGUAUUCAAUAUUGUGGAAUUCUCGGGUGCCAA: 1.32
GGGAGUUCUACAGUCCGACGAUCUUUUUUAUAUCUCACACUUCACACCAGUGCAUUACACUAACUUGUUCACUGGAUUGUCUGGGAUGACUUGGGCUCAUAUCCACAAUACUUGGUAUAAGGUAGUAGAUUGUUGGAAUUCUCGGGUGCCAA: 0.313
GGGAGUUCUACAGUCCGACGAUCCACCCUCCCUGGAACCACACCAGAAAGAGACCUGGGUUGUCGUUUUCUUGCUUUUUGUUUUGUUUUGUUUUAUUAUUUUCAUAUCACCUCCAUCCCAUAAAGUUGUACUGUGGAAUUCUCGGGUGCCAA: 0.394
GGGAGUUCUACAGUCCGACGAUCGUCAGGCUUUGUGUUAUUUUAAAUGGUUUUUUAAAAUUUUCUUCUAUGUUUUCAAUUACCUAAAGACAUAGGAUAAUAGUUUUUUUUAAGUUAGAAUUUUACCUCAUAAAUGGAAUUCUCGGGUGCCAA: 0.757
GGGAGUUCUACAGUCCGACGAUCCUGGAUGGAUAUGAGACAGCCCGCUAUGGGACAGGGGUCUUUGGCCAGAGUGAGUACUUACGAUAUCAAGAGGCCUUGAGUGAGCUGGCCACUGUGGUCAAAGCACGAAUUGGAAUUCUCGGGUGCCAA: 1.03
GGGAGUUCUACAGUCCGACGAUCAACCUAAGUGCUGCCCCAUCCUUCACCUUUACCCUAGAAAAUCUGAGAAUCCAUUGGUGUGUACUGUGUGACACAAUGCCAACAAGCCUCUGGUUUCUAAUACUGGCAGGUGGAAUUCUCGGGUGCCAA: 0.383
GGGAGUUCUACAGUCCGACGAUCCCUUGAGUGUGGCACCUCCCCUCCCAAGCCCCCCUUGACAUCCUCUCAGCUACUCCAGGGCACCUGACUGCUCUGAGGAGAGGGAAGAAGGCCUGCUGGGGCUUUCCAUGUGGAAUUCUCGGGUGCCAA: 1.49
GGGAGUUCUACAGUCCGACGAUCUAAGGCUAGAGUAUUUUAUAUAAAUAGAAGAGCUUAGGUCCUGAAGACCAAGGCAGAUAGAUGCAGCUAUGUGUACAUUGUAUAUUUUUGUGAACUUCUCAAGCACGCACUGGAAUUCUCGGGUGCCAA: 0.553
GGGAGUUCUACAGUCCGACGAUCUCUGGCAUUGGCAAAAAACCAGUAGAAGUGAAUUGUUAGCUGAUGGCCAGGGGGUGUGAUAACAAAUUGUCCUCAAGUAUCCCAUGUAAUUUUUAUUUAAACCCUUGCACUGGAAUUCUCGGGUGCCAA: 0.594
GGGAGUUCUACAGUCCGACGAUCACUUUGCACUUUGAAUCCAGAGGAAGAUGAAUUUUUAAAAUCUCCAUCAAACGUGCCUUAAAGCUAAAGCAUUUUGACAGGAGUAUUUAAACUUAGUCCAGGAUAUUUUCUGGAAUUCUCGGGUGCCAA: 0.383
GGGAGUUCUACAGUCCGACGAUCUCCAUACAUCUUCUGAAAACUAGGCGGAGGUUUCCAAAUCUCAAUUCUUGACUUCUGUGCACCUGCAGGCUUAACAGCACAUAGAAGCUGCCAAGGCUUGGGGCUUCCACUGGAAUUCUCGGGUGCCAA: 0.599
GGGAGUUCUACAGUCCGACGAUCCGUCUACAGCUAAAACAAUUUGCCAAUAAAGUACAUGUUUUUCCUAAGCCAAAAAUAAAUACGUUAACAGAAAAAUGAUUUAGGAUAUAGCUUGAAUGCUUAAAUAUGUGUGGAAUUCUCGGGUGCCAA: 0.485

Series 5 — technique: universal PBM; molecule type: double-stranded DNA, one strand shown; medium: in vitro; concentration: 600 nM; reading: higher = stronger binding; quantity: E-score
Target: Sal-like protein 4, full length isoform A (SALL4, Homo sapiens, UniProt Q9UJQ4, residues 1-1053)
UniProt Q9UJQ4, sequence (whole entry, looked up): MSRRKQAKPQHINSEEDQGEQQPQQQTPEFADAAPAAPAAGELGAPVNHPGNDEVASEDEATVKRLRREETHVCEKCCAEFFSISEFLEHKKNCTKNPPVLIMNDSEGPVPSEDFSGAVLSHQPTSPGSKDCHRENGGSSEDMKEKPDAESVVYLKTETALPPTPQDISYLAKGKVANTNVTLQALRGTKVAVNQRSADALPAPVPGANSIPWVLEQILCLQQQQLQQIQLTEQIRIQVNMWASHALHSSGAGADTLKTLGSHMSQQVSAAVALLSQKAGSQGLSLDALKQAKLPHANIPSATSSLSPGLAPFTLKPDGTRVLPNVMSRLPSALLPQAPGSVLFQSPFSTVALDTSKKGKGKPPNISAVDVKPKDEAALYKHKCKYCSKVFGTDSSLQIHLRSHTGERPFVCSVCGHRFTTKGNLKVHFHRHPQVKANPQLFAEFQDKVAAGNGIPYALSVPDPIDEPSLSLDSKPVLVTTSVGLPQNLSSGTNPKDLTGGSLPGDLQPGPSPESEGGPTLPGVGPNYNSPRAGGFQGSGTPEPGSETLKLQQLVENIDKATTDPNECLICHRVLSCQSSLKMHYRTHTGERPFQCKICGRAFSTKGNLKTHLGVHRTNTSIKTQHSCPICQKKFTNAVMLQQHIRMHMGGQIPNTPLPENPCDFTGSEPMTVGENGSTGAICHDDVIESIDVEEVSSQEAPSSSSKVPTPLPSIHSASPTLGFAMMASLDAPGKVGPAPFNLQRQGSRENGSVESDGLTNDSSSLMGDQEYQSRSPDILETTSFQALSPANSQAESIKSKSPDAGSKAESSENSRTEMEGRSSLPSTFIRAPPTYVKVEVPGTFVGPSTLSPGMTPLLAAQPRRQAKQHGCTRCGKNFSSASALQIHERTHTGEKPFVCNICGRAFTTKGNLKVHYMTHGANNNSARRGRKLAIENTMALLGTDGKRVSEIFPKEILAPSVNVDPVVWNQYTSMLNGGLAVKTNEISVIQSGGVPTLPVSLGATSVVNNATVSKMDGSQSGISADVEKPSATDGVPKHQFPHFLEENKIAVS
Notes: 8-mer, flanks averaged, mean of replicates
GTTGGGGA: -0.197
ATACGGAG: 0.0601
GCACGGTA: -0.0938
GCACCCGC: -0.131
CGGTACAG: -0.138
GCAGATCC: -0.105
ACCCCAAA: -0.0993
TGGGGTAA: -0.0814
ATAGCATG: 0.0535
ACACTTTC: 0.0288
TCCCTACA: 0.155
CACATTAA: 0.199
ATGTCAAG: 0.0914
GGGCGGTA: -0.278
ACTGTGCT: -0.0372
CAGGACCG: -0.228
GGCCTCCC: -0.333
GCCCGAGA: -0.209
CCGCACCG: -0.284
ATACACGC: 0.0749
AAGTAGCG: -0.0911
ACTCCCTG: -0.12
AATTGTTA: 0.34

A few entries again (series 5):
CAGGACCG: -0.228
AATTGTTA: 0.34
CGGTACAG: -0.138
CACATTAA: 0.199
TCCCTACA: 0.155
TGGGGTAA: -0.0814
ATACACGC: 0.0749
ATACGGAG: 0.0601
GCCCGAGA: -0.209
